# Results from different studies.
# Each numbered part is a random draw from the data of one study; scales do not carry over between parts. Positions count from the first letter of the parent shown.
# UniProt O75417, sequence (whole entry, unmodified, looked up): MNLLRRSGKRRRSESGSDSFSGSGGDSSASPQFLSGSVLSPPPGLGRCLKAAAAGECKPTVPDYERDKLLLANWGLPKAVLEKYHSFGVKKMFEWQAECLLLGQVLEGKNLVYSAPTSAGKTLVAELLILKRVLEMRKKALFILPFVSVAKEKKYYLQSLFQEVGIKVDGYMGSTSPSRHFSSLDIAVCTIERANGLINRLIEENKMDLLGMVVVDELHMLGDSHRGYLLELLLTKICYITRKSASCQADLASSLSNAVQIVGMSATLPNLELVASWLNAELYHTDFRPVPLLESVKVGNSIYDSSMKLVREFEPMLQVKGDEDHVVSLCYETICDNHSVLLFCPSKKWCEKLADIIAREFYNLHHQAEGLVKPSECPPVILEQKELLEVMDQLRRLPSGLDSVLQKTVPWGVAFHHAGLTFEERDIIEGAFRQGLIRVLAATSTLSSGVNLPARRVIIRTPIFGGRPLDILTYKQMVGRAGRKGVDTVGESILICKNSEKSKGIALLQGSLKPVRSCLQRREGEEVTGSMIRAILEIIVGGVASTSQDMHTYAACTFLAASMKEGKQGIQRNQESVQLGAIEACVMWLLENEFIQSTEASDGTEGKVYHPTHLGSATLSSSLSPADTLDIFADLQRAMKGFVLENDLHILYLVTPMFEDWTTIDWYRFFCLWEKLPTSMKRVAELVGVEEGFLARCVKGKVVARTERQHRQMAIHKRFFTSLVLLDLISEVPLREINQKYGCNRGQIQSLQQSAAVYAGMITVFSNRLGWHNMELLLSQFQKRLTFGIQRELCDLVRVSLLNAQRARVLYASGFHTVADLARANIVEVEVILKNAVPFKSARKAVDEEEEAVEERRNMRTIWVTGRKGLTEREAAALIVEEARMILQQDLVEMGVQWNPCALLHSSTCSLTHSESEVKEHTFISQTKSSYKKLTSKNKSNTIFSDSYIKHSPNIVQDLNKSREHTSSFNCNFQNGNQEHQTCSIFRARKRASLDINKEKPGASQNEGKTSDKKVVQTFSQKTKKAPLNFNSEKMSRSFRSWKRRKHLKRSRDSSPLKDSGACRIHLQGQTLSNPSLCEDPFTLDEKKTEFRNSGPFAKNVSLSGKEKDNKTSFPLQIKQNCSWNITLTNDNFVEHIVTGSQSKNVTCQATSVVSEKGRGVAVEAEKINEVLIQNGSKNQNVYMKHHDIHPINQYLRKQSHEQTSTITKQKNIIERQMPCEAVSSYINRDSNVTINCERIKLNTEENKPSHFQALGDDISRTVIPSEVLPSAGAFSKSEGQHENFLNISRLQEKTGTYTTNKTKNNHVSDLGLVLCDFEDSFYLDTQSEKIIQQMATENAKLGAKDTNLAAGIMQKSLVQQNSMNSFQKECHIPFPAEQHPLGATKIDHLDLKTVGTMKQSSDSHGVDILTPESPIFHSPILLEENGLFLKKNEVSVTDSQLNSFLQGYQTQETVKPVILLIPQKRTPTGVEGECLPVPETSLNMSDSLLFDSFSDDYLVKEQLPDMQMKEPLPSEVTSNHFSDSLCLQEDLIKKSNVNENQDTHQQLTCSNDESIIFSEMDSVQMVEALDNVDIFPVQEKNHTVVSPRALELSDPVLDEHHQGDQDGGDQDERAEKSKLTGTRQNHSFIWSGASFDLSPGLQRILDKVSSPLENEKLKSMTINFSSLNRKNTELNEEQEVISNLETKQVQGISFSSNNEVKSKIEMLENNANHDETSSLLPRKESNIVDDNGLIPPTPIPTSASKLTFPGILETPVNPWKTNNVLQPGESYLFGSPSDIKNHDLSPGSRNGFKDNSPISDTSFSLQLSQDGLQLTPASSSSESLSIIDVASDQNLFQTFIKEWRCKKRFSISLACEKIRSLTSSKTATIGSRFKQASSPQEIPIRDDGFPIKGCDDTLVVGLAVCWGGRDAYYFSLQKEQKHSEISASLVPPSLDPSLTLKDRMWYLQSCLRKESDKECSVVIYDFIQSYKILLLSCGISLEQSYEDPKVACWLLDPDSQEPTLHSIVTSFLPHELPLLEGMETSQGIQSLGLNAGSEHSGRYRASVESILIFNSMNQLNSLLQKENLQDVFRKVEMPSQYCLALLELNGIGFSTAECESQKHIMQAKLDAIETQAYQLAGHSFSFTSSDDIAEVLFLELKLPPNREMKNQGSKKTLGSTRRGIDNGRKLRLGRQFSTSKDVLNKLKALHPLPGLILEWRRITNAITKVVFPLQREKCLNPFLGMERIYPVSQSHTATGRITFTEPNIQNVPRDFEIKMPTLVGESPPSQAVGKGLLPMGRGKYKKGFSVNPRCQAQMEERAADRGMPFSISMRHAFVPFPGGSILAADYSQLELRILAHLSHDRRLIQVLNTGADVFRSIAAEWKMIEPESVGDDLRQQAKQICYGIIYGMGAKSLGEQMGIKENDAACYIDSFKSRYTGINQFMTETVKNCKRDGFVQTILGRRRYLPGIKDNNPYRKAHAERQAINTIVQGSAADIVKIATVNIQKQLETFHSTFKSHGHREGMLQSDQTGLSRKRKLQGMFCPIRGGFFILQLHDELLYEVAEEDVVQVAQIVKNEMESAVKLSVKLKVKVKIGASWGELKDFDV
# UniProt Q9UQM7, sequence (whole entry, looked up): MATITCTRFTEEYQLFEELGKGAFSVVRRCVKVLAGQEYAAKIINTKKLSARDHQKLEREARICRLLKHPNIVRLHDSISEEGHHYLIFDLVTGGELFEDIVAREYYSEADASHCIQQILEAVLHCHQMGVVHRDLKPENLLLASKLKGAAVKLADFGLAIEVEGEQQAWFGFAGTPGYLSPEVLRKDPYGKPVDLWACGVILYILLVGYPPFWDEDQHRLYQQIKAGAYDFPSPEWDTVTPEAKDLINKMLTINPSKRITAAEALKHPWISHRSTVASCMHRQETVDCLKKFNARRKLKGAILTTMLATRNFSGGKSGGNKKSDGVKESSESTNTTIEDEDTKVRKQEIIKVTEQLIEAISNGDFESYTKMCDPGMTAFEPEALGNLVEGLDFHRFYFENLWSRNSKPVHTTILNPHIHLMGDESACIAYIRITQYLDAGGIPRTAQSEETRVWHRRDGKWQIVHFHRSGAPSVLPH

# Block 1 — SMILES: Cc1ccc(O)cc1Nc1ccnc2cc(-c3ccccn3)ccc12; cell line: L929; effect on: necroptosis protection; technique: CCK-8; together with: TNF-α-induced
tested at,viability [%]
1.667 µM,50.4
0.078 µM,31.4
10 µM,55.3
0.313 µM,34.5

# Block 2 — target: CCNB3, cyclin fold, Cln2 fusion (human); technique: yeast growth competition, sequencing; sample: yeast; setting: strong parent motif; relative to: not given; direction: higher = stronger binding; starting sequence: viral docking peptide; KKAKRRLFTISDS
Substitution,normalised enrichment score
K4A,0.24
R5A,0.486
S11A,0.324
F8A,0.166
D12A,0.131
L7A,0.36

# Further values, each from its own experiment — mode: inhibitor
Substance,target,test,setting,how to read,quantity,value
merbromin,"DNA polymerase theta, ATPase domain (POLQ, Homo sapiens, UniProt O75417)","ATPase activity, ADP-Glo","77 µM, replicate B",direction not given,Z-score,-6.34
CC(C)=CCC[C@](C)(O)[C@H]1CC[C@]2(C)[C@@H]1[C@H](O)C[C@@H]1[C@@]3(C)CC[C@H](O)C(C)(C)[C@@H]3[C@@H](O[C@@H]3O[C@H](CO)[C@@H](O)[C@H](O)[C@H]3O)C[C@]12C,"Calcium/calmodulin-dependent protein kinase type II subunit alpha (CAMK2A, Homo sapiens, UniProt Q9UQM7)",enzyme activity,10 µM,,inhibition,-14%

# Some of these lines once more (block 2):
Substitution,normalised enrichment score
S11A,0.324
